# Results of several laboratories.
# Each line is one published result; not all experiments were run side by side.
# Organism: Escherichia coli
Compound,assay,test system,setting,how to read,quantity,value
O=S(=O)(O)c1ccc2c(c1)Cc1cc(S(=O)(=O)O)ccc1-2,"bacterial growth, broth microdilution",expressing OXA-48,"32 µg/mL, with: ampicillin",MIC of ampicillin,MIC of ampicillin,256 µg/mL
NC[C@H]1OB(O)c2ccccc21,broth microdilution,"ATCC 25922 wild type, M9 medium",,,MIC,3.1 µM
NC[C@@H](NC[C@@H]1CCCN1C[C@@H](CO)NC[C@@H](NCCC1CC2CCC1C2)c1ccccc1)c1ccccc1 (stereo partly drawn),bacterial growth,,"16 µM, fold shift of IC50, with: amikacin",,potentiation of amikacin,3.3 fold
O=S(=O)(O)c1ccc2cc(S(=O)(=O)O)ccc2c1,"bacterial growth, broth microdilution",expressing OXA-48,"256 µg/mL, with: ampicillin",MIC of ampicillin,MIC of ampicillin,32 µg/mL
CC(CCN[C@H](CN[C@H](CO)CN1CCC[C@H]1CN[C@H](CN)c1ccccc1)c1ccccc1)c1ccccc1 (stereo partly drawn),bacterial growth,,compound alone,,IC90,> 24 µM
C[C@H](CS)C(=O)N[C@@H](Cc1c[nH]c2ccccc12)C(=O)O,,VIM-1 producing,"10 µM, with: meropenem",,MIC of meropenem,16 µg/mL
Nc1cc(S(=O)(=O)O)cc2cc(S(=O)(=O)O)cc(O)c12,"bacterial growth, broth microdilution",expressing OXA-48,"32 µg/mL, with: ampicillin",MIC of ampicillin,MIC of ampicillin,512 µg/mL
NC[C@@H](NC[C@@H]1CCCN1C[C@@H](CO)NC[C@@H](NCCC12CC3CC(CC(C3)C1)C2)c1ccccc1)c1ccccc1,bacterial growth,,compound alone,,IC90,15.2 µM
CC(C)Oc1c(NC(=O)c2ccc(NC(=O)[C@H](CC(N)=O)NC(=O)c3cc(F)c(/N=N/c4c(Cl)cc(C#N)cc4Cl)c(F)c3)cc2)ccc(C(=O)N/N=C/c2c(F)cc(C(=O)O)cc2F)c1O,,BW25113,after 1 h irradiation at 450 nm,,MIC,> 6.4 µg/mL

# A few entries again:
Compound,assay,test system,setting,how to read,quantity,value
NC[C@H]1OB(O)c2ccccc21,broth microdilution,"ATCC 25922 wild type, M9 medium",,,MIC,3.1 µM
